Experimental data pooled from the literature.
Numbered parts are unrelated; each lists some results of a single study. Values joined by “and” are separate records of one study, mostly repeats; a detail may differ.
Sequence of UniProt P17106 (whole entry, looked up): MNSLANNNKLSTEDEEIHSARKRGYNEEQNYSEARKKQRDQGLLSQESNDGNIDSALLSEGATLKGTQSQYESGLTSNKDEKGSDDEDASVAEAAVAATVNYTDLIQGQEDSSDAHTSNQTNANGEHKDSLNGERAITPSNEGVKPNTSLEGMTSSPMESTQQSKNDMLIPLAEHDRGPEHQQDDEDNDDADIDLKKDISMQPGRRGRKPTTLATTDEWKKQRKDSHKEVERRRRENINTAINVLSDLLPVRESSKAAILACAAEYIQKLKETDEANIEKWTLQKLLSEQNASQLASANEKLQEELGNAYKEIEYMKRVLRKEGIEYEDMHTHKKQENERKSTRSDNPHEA

Set 1 — technique: protein binding microarray; form: double-stranded DNA, one strand shown; matrix: in vitro; tested at: not given; baseline: not given; reading: higher = stronger binding
Target: Histone acetyltransferase KAT6A, both winged helices, GST fusion (KAT6A, Homo sapiens, UniProt Q92794, residues 1-181)
Setting: 8-mer, flanks averaged, mean of 2 arrays, mostly near background
Residues (chain): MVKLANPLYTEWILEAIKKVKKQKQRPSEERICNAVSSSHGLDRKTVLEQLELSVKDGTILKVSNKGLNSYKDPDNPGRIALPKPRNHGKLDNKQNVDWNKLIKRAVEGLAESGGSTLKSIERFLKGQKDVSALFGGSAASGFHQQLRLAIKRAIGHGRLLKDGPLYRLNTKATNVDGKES
Strand | E-score
GATATCGC | 0.176
CTGTGTTA | -0.0901
CATCGGGA | 0.0347

Set 2 — technique: universal PBM; form: double-stranded DNA, one strand shown; matrix: in vitro; tested at: 600 nM; reading: higher = stronger binding
Target: Sal-like protein 4, full length isoform A (SALL4, Homo sapiens, UniProt Q9UJQ4, residues 1-1053)
Sequence of UniProt Q9UJQ4 (whole entry, looked up): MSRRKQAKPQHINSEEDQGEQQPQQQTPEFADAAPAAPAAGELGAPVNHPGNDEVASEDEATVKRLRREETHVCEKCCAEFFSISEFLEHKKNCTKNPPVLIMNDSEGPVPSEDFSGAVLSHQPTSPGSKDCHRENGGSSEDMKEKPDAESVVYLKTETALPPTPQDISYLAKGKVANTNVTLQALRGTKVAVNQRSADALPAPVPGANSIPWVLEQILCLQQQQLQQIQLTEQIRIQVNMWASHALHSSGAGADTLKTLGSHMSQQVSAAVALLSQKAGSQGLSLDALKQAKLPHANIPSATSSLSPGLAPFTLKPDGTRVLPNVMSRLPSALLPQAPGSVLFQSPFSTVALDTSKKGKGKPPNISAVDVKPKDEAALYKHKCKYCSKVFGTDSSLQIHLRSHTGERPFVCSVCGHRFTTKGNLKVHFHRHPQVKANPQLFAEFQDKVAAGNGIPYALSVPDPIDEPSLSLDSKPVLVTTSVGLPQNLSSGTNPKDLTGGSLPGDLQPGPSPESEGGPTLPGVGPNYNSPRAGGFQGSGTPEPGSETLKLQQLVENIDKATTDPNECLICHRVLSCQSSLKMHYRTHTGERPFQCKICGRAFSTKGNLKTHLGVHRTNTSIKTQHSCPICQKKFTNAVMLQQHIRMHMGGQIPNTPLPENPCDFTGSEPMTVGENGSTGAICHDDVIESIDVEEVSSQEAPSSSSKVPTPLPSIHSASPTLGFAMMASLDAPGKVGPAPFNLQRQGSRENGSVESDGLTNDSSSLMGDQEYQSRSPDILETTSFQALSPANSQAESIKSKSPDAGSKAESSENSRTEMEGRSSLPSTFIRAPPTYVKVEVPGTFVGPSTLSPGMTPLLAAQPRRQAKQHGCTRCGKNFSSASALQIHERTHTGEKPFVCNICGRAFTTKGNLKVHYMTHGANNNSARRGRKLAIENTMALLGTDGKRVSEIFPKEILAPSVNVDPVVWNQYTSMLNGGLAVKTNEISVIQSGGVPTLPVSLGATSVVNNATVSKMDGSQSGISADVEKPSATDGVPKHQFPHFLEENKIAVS
Setting: 8-mer, flanks averaged, mean of replicates
Strand | E-score
ATAATGGC | 0.101
CAGCTTCC | -0.279
AGTCAACT | -0.055

Mixed results
PHO4 full length, GST-tagged: Phosphate system positive regulatory protein PHO4, full length, GST-tagged (PHO4, Saccharomyces cerevisiae, UniProt P07270, residues 1-312)
Sequence of UniProt P07270 (whole entry, looked up): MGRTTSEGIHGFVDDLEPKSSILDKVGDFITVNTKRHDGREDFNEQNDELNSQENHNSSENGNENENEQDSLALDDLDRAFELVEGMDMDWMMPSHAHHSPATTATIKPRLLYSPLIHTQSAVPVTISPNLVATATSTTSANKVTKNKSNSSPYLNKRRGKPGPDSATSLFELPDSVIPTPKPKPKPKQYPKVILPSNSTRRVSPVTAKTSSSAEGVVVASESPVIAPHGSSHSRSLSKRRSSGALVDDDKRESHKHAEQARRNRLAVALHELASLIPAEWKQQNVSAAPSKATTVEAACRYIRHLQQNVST
Substance | target | test | test system | conditions | how to read | measurement | value
CTAACACGTGATATATTTGAAATGTGATTATATTTCGTCTTGATTCGCTTGACGCTGCTG | Centromere-binding protein 1, full length, N-terminal tag (CBF1, Saccharomyces cerevisiae, UniProt P17106, residues 1-351) | protein-binding microarray | double-stranded DNA, one strand shown, in vitro | 0.8 µM, whole 60-bp probe, no competitor | higher = stronger binding | fluorescence intensity | 11900 a.u.
PhoQ, residues 284 288 289 292 302 303 SSTMSV | PhoP, residues 12 14 15 18 19 LWHCS (Escherichia coli, UniProt P23836) | Sort-seq, measured: YFP reporter | E. coli | PhoQ-PhoP variant library, added: 10 µM Mg2+ | baseline: high Mg2+ state, higher = stronger signaling | fold induction | 14.5 and 7.03
GTAGCAGAGGTGGTTCCCGTGGAGGTTCCAGAGGTGGTCTTGATTCGCTTGACGCTGCTG | PHO4 full length, GST-tagged | competition protein-binding microarray | double-stranded DNA, one strand shown, in vitro | 2 µM, whole 60-bp probe, lowest competitor level, added: Cbf1 competitor, 0.05 µM | higher = stronger binding | fluorescence intensity | 6550 a.u.
CTTTCCCGATCTTTTCACGTGCCATTAGCACATTTGGTCTTGATTCGCTTGACGCTGCTG | PHO4 full length, GST-tagged | competition protein-binding microarray | double-stranded DNA, one strand shown, in vitro | 2 µM, whole 60-bp probe, lowest competitor level, added: Cbf1 competitor, 0.05 µM | higher = stronger binding | fluorescence intensity | 15900 a.u.

A few entries again (set 2):
Strand | E-score
CAGCTTCC | -0.279
AGTCAACT | -0.055
